# Published values gathered from unrelated publications.
# Parts stem from different laboratories: compare values within a part only. Several values in a cell are separate wells, animals, samples, runs or records.
# Chain of UniProt P23975 (whole entry, looked up): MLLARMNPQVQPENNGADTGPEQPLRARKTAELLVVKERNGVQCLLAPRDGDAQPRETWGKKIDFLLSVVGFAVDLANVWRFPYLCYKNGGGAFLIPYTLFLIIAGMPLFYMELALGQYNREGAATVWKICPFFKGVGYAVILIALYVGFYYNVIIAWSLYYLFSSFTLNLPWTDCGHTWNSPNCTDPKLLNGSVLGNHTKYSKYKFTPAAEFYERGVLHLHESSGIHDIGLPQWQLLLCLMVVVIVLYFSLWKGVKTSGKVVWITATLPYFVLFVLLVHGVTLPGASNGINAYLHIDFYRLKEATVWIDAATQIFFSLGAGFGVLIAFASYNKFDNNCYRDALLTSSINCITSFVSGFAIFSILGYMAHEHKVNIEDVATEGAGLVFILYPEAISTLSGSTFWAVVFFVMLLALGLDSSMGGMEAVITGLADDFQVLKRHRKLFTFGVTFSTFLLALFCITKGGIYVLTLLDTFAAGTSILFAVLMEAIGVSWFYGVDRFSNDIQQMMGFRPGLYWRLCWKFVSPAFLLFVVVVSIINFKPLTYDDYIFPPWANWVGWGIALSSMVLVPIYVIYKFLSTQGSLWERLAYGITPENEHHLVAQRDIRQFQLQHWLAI
# Chain of UniProt P41145 (whole entry, looked up): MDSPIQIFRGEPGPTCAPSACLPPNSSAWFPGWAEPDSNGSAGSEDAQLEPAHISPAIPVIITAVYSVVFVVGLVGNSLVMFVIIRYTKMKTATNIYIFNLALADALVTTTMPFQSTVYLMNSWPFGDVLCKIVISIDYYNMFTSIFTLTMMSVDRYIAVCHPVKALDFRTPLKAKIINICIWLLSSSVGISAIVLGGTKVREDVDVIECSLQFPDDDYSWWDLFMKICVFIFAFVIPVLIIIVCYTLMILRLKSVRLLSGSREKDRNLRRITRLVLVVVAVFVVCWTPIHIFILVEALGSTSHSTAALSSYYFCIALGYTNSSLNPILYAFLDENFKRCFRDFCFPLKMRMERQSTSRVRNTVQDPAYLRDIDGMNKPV
# Chain of UniProt P11229 (whole entry, looked up): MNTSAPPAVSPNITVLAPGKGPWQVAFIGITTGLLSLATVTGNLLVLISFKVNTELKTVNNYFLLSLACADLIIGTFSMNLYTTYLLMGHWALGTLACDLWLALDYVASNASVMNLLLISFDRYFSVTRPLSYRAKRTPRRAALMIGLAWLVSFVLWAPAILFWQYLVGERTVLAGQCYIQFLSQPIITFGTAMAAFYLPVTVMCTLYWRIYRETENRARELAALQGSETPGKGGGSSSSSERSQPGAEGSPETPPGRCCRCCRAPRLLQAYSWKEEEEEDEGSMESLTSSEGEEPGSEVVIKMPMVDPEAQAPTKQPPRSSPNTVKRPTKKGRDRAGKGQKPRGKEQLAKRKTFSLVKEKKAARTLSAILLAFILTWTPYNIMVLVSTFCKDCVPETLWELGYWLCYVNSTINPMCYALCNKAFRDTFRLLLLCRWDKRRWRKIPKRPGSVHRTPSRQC
# Chain of UniProt P20309 (whole entry, looked up): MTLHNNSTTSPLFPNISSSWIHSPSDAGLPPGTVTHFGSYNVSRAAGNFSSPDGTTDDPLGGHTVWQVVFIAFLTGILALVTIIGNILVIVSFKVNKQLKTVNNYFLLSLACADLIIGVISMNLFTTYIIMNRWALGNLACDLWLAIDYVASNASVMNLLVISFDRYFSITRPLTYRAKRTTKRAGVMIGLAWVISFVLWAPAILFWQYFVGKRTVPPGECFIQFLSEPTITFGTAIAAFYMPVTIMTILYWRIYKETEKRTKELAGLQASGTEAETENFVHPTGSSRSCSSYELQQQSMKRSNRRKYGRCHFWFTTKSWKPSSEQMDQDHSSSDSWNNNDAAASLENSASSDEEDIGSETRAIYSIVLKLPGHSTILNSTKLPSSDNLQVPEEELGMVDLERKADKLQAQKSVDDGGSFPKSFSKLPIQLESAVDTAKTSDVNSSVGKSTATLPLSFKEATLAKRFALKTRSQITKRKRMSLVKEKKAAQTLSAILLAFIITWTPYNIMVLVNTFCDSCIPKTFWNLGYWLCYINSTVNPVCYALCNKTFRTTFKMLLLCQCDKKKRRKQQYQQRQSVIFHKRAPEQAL
# Chain of UniProt Q01959 (whole entry, looked up): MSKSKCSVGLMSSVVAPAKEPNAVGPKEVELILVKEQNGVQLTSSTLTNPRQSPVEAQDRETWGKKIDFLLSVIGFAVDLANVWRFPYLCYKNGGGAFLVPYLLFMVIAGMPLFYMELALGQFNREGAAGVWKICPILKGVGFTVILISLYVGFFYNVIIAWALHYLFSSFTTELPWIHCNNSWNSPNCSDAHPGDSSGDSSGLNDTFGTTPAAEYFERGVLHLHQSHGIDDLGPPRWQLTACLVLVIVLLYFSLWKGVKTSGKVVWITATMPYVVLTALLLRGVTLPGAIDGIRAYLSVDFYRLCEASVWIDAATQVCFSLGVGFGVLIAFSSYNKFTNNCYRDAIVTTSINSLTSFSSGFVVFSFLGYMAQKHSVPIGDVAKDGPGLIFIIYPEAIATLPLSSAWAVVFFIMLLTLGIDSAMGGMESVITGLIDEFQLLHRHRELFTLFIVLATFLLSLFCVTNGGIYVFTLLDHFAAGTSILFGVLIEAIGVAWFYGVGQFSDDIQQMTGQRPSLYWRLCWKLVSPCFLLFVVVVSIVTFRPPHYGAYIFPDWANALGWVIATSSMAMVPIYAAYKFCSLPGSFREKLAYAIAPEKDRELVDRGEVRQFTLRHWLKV

# Block 1 — cell line: HEK-293T/ACE2; concentration: concentration not given; time: 16 (unit not given); relative to: vehicle
SMILES,viability [%]
Oc1c(Cl)cc(Cl)c2cccnc12,80.2
CCC1=C(C)CN(C(=O)NCCc2ccc(S(=O)(=O)NC(=O)N[C@H]3CC[C@H](C)CC3)cc2)C1=O,102
CCOC(=O)[C@H](CCc1ccccc1)N[C@H]1CCc2ccccc2N(CC(=O)O)C1=O,104
NS(=O)(=O)c1cc2c(cc1Cl)NC(C(Cl)Cl)NS2(=O)=O (centres unmarked),100
CCN(CC)CCNC(=O)c1c(C)[nH]c(/C=C2\C(=O)Nc3ccc(F)cc32)c1C,98.7
CC=CC(=O)N(CC)c1ccccc1C (mixture of isomers),100
CN(C)CC(c1ccc(O)cc1)C1(O)CCCCC1 (centres unmarked),103
COc1ccc(OC)c(C(O)CNC(=O)CN)c1 (centres unmarked),101
CCN(CC)CCNC(=O)c1ccc(N)cc1,91.6
Cc1cn[nH]c1,101
O=C1[C@H](CC[C@H](O)c2ccc(F)cc2)[C@@H](c2ccc(O)cc2)N1c1ccc(F)cc1,101
Nc1nc(Cl)nc2c1ncn2[C@@H]1O[C@H](CO)[C@@H](O)[C@@H]1F,82.8
C[C@H]1O[C@H](O[C@H]2[C@H](O)[C@@H](O)[C@@H](O[C@H]3[C@H](O)[C@@H](O)C(O)O[C@@H]3CO)O[C@@H]2CO)[C@H](O)[C@@H](O)[C@@H]1N[C@H]1C=C(CO)[C@@H](O)[C@H](O)[C@H]1O (some centres unmarked),103
Cc1ccc(Cl)c(Nc2ccccc2C(=O)O)c1Cl,103
CN(C)c1cc(NC(=O)CNC(C)(C)C)c(O)c2c1C[C@H]1C[C@H]3[C@H](N(C)C)C(O)=C(C(N)=O)C(=O)[C@@]3(O)C(O)=C1C2=O,100
CN1C(=O)OC(C)(C)C1=O,101
CC1=C(C/C=C(\C)CCC[C@H](C)CCC[C@H](C)CCCC(C)C)C(=O)c2ccccc2C1=O,97.3
CC1=C(/C=C/C(C)=C/C=C/C(C)=C/C=C/C=C(C)/C=C/C=C(C)/C=C/C2=C(C)CCCC2(C)C)C(C)(C)CCC1,99.2
CCCN1CCCC[C@H]1C(=O)Nc1c(C)cccc1C,100

# Block 2 — organism: Sarcocystis neurona; read-out: parasite growth; concentration: 10 µM; setting: secondary screen
SMILES,inhibition
CC(C)CC(N(C)C)C1(c2ccc(Cl)cc2)CCC1.Cl (centres unmarked),-42.6%
CC(C)[C@]12O[C@H]1[C@@H]1O[C@]13[C@]1(O[C@H]1C[C@H]1C4=C(CC[C@@]13C)C(=O)OC4)[C@@H]2O,82.2%
CCCC(C)(COC(N)=O)COC(=O)NC(C)C (centres unmarked),-32.8%
O=C1Nc2ccc(Cl)cc2C(c2ccccc2Cl)=NC1O (centres unmarked),-8.6%

# Block 3 — concentration: 10 µM
# Compound: O=C(NCc1ncc(C(F)(F)F)cc1Cl)c1ccc2c(c1)C1(CCS(=O)(=O)CC1)[C@@H](C1CC1)N2S(=O)(=O)c1ccc(F)cc1
target,read-out,inhibition
"SLC6A2 (Homo sapiens, UniProt P23975)",cell-free assay,3.76%
"SLC6A3 (Homo sapiens, UniProt Q01959)",cell-free assay,-4.64%
"OPRK1 (Homo sapiens, UniProt P41145)",ligand displacement,4.54%
"CHRM1 (Homo sapiens, UniProt P11229)",ligand displacement,-3.7%
"CHRM3 (Homo sapiens, UniProt P20309)",ligand displacement,14.4%

# Block 4 — setting: unit not given; relative to: untreated
# Compound: CNCc1ccc(-c2[nH]c3cc(F)cc4c3c2CCNC4=O)cc1
cell line,concentration,clonogenic survival
RPE-1 BRCA2-/-,0.5 µM,0
RPE-1 BRCA1-/-,0.01 µM,0.127 and 0.312 and 0.068
RPE-1 BRCA1-/-,0.25 µM,0 and 0.0068
RPE-1 BRCA2-/-,0.1 µM,0.0268 and 0.0575 and 0.0107
RPE-1 BRCA1-/-,0.1 µM,0.0106 and 0.0417 and 0.0068

# Block 5 — cell line: mouse MPNST tumor cells; method: high-content nuclear imaging; item: cell number; concentration: 10 µM; time: 12 h; setting: mean of 2 replicates; relative to: plate mean; reading: higher = more cells
SMILES,nuclei count
CCn1cc(C(=O)O)c(=O)c2cc3c(cc21)OCO3,2.62 z-score
CC(=O)[C@H]1CC[C@H]2[C@@H]3CC[C@H]4C[C@H](O)CC[C@]4(C)[C@H]3CC[C@]12C,0.272 z-score
O=c1[nH]c2ccccc2n1C1CCN(CCCC(c2ccc(F)cc2)c2ccc(F)cc2)CC1,-0.427 z-score and -7.05 z-score
CC(C)(N)Cc1ccccc1,1.58 z-score
Oc1cc(Cl)ccc1Oc1ccc(Cl)cc1Cl,-0.753 z-score
CC(=O)N(C)c1cccc(-c2ccnc3c(C(=O)c4cccs4)cnn23)c1,0.208 z-score
CC[C@@]1([C@@H]2O[C@@H]([C@H]3O[C@@](O)(CO)[C@H](C)C[C@@H]3C)C[C@@H]2C)CC[C@H]([C@]2(C)CC[C@]3(C[C@H](O)[C@@H](C)[C@@H]([C@@H](C)[C@@H](OC)[C@H](C)C(=O)O)O3)O2)O1,2.5 z-score

# Mixed results
SMILES,cell line,concentration,time,setting,endpoint,value
O=C1CCC(N2Cc3c(ccc4c3OCC43CCN(Cc4ccccc4)CC3)C2=O)C(=O)N1 (centres unmarked),Caco-2,10 µM,120 min,basolateral to apical,recovery,107%

# Repeated from above (block 1):
SMILES,viability [%]
CC1=C(/C=C/C(C)=C/C=C/C(C)=C/C=C/C=C(C)/C=C/C=C(C)/C=C/C2=C(C)CCCC2(C)C)C(C)(C)CCC1,99.2
CCCN1CCCC[C@H]1C(=O)Nc1c(C)cccc1C,100
